# Measurements of several laboratories.
# Protein sequences, listed by entry. Tags and fused reporters are not part of them. Residues count along the entry.
# UniProt Q9BJF5, 1-507: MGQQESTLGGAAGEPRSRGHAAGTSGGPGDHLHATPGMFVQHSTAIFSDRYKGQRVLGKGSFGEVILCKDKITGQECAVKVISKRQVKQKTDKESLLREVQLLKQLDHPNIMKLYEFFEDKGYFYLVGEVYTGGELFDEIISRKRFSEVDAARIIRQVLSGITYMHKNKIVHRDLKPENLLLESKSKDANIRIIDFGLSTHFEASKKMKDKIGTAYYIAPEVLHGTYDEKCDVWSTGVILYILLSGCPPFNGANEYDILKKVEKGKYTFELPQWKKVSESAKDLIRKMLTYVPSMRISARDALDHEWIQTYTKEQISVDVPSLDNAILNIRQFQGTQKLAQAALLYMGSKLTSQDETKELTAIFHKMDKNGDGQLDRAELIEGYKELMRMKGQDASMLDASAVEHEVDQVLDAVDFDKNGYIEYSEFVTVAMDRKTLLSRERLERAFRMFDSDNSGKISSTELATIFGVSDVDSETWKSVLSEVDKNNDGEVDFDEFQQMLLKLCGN
# UniProt O60928, whole entry M125R: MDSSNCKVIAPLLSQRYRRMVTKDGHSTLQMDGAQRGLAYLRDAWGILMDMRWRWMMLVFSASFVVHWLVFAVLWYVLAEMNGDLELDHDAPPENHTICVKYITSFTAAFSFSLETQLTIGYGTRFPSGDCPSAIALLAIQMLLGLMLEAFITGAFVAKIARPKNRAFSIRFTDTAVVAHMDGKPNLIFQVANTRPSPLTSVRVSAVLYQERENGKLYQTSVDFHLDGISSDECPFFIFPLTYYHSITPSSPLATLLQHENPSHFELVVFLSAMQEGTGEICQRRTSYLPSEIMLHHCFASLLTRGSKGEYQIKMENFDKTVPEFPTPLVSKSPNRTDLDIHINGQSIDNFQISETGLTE
# UniProt P29704, 1-420 limits assumed: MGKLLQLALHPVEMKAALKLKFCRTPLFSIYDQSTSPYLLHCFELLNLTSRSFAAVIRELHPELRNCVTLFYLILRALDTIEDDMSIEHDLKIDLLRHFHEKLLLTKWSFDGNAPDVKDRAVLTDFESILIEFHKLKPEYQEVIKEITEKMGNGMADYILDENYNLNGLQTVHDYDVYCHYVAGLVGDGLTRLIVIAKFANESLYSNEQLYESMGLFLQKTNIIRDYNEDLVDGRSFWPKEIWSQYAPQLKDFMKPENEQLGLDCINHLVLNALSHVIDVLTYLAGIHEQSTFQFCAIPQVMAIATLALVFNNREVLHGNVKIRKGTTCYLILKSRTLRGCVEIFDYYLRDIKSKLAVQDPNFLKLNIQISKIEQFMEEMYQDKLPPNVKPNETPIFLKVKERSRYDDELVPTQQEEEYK
# UniProt P05186, 18-524 limits assumed: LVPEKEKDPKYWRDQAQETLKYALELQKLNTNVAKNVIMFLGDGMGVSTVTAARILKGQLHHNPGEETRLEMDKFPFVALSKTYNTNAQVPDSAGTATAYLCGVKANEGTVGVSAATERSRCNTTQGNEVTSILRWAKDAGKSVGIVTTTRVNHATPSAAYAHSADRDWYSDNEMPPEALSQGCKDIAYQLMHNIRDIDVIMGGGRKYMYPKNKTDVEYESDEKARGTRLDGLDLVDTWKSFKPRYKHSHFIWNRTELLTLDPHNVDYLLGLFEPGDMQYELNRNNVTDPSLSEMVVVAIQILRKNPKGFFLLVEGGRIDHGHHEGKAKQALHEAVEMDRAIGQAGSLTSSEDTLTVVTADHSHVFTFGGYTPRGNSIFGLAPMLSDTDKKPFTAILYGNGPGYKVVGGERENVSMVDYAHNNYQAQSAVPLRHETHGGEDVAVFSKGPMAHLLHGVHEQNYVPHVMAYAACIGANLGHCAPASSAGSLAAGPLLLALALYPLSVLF
# UniProt P25779, whole entry, looked up: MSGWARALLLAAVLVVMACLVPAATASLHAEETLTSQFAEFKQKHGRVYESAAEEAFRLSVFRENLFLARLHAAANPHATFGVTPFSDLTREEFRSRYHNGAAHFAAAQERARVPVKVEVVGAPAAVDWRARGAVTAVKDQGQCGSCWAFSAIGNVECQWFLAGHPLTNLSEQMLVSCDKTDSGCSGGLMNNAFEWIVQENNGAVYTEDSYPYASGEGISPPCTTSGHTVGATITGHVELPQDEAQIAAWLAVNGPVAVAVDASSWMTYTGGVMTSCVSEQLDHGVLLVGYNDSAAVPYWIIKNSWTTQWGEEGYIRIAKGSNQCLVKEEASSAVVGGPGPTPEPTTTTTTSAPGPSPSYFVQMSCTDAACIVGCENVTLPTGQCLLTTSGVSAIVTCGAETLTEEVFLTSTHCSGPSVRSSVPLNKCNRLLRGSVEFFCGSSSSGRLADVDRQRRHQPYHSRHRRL
# UniProt Q07812, whole entry: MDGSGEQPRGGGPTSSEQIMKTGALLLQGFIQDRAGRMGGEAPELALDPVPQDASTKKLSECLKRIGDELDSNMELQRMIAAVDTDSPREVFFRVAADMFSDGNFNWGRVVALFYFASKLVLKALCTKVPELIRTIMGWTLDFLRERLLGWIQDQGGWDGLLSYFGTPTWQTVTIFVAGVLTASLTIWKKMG
# UniProt P14867, whole entry, looked up: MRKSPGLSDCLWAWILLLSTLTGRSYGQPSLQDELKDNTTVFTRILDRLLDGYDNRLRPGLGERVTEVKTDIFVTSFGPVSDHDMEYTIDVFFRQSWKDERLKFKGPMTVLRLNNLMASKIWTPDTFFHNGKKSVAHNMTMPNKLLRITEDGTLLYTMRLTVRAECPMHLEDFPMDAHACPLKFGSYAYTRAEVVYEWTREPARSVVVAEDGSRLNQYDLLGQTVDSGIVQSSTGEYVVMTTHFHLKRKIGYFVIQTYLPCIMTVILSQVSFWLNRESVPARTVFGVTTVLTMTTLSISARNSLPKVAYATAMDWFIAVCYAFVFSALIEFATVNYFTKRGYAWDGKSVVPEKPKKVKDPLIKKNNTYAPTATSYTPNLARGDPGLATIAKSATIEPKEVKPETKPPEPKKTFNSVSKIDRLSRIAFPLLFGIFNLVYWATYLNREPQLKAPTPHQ
# UniProt C7C422, 29-270 limits assumed: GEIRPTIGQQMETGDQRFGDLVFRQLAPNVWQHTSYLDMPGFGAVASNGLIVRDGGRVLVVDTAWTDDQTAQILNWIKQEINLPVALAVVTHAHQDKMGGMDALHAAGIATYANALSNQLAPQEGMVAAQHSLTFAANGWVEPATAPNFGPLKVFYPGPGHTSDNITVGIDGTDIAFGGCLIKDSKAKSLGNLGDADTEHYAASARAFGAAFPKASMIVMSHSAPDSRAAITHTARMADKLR
# UniProt Q8IBS5, whole entry: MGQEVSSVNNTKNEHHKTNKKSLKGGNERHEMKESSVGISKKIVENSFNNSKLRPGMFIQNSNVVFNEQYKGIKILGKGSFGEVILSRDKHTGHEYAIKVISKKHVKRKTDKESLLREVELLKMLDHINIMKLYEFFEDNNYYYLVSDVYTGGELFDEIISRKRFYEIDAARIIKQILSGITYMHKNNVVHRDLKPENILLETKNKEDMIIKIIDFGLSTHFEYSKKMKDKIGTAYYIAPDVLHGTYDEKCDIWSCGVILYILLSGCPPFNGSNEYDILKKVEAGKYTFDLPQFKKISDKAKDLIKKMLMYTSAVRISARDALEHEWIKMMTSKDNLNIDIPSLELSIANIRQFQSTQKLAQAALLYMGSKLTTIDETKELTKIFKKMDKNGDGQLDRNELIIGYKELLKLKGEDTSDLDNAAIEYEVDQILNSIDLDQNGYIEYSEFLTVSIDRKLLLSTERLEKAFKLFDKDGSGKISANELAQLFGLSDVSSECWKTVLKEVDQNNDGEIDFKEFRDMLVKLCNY
# UniProt P51681, whole entry: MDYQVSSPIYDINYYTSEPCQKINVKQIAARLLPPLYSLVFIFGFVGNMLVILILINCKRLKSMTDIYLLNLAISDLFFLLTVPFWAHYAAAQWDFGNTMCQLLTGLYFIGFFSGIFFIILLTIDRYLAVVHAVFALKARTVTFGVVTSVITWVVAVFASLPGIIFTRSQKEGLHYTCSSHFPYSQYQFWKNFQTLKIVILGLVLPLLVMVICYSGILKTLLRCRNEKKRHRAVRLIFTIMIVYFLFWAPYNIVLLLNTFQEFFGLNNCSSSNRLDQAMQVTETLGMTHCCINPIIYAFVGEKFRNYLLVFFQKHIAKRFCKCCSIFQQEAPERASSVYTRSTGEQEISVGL
# UniProt T1WGN1, 37-843 limits assumed: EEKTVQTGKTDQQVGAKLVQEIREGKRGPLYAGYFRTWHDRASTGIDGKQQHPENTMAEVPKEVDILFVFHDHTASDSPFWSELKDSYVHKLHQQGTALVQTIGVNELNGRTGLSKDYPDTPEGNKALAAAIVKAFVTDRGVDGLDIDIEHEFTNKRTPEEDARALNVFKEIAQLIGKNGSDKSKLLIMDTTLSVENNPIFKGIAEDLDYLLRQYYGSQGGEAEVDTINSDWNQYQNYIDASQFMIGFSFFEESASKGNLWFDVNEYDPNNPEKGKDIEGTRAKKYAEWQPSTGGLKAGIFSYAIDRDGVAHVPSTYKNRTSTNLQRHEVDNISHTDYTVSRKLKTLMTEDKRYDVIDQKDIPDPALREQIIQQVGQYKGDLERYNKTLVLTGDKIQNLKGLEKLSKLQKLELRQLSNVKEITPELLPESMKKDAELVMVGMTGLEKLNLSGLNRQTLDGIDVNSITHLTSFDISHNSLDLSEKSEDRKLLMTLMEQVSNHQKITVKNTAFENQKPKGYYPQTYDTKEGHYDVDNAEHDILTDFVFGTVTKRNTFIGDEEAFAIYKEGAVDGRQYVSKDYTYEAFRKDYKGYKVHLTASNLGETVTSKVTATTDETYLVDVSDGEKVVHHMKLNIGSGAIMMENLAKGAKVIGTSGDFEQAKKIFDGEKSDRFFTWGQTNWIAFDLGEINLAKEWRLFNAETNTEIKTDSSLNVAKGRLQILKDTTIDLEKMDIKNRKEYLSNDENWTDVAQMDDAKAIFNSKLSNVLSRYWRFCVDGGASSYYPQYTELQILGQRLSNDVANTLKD
# UniProt Q07440, whole entry P104K/C113S, looked up: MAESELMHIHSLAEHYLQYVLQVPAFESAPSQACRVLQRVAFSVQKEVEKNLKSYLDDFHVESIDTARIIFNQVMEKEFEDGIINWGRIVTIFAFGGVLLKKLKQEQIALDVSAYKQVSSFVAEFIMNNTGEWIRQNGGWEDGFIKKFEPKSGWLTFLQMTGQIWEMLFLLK
# UniProt P0AES4, whole entry: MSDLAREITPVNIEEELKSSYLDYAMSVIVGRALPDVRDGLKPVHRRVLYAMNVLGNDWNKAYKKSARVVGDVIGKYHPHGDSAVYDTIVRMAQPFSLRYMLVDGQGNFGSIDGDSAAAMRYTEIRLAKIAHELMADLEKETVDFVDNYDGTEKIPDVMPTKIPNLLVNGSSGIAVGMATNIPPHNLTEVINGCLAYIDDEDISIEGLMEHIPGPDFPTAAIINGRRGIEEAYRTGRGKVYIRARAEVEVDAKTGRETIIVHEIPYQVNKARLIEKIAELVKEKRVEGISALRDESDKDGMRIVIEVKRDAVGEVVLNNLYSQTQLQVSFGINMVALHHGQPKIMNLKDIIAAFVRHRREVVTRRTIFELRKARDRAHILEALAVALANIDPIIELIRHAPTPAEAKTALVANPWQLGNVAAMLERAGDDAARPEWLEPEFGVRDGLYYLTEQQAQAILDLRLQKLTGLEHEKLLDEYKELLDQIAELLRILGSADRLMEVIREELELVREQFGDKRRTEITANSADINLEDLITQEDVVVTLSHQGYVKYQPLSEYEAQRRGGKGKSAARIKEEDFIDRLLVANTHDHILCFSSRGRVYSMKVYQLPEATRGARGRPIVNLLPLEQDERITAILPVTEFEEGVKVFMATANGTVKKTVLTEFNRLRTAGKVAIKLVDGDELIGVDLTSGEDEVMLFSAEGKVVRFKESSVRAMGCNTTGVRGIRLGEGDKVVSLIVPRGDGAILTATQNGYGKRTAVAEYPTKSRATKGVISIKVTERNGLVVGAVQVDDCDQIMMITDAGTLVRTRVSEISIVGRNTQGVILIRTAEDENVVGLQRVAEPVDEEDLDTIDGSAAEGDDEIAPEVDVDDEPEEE
# Protocols differ between the studies behind these lines. ± marks the error that the study gave.
# uidA: Beta-glucuronidase (uidA, Escherichia coli, UniProt P05804)
# SUMO-activating enzyme subunit 2 with SAE1: SUMO-activating enzyme subunit 2, with SAE1 (Homo sapiens, UniProt Q9UBT2)
# hdac6 CD2 catalytic domain: Histone deacetylase 6, CD2 catalytic domain (hdac6, Danio rerio, UniProt F8W4B7)
# CDPK1: Calmodulin-domain protein kinase 1 (CDPK1, Toxoplasma gondii, UniProt Q9BJF5)
# Genome polyprotein NS2B-NS3 protease: Genome polyprotein, NS2B-NS3 protease (ZIKV, UniProt A0A024B7W1)
# KCNJ13 M125R: Inward rectifier potassium channel 13 (KCNJ13, Homo sapiens, UniProt O60928, M125R)
# Squalene synthase ERG9: Squalene synthase ERG9 (Saccharomyces cerevisiae, UniProt P29704)
# Grin1/Grin2b ifenprodil binding site: Glutamate NMDA receptor; Grin1/Grin2b, ifenprodil binding site (Grin1/Grin2b, Rattus norvegicus, UniProt P35439+Q00960)
# HSP90AB1: Heat shock protein HSP 90-beta (HSP90AB1, Homo sapiens, UniProt P08238)
Compound,target,test,system,conditions,IC50
Nc1c(S(=O)(=O)Oc2ccccc2NC(=O)Cc2c[nH]c3ccccc23)ccc2ccccc12,"ALPL (Homo sapiens, UniProt P05186)",,,,2.86 ± 0.06 µM
O=c1[nH]c2sc3c(c2c(=O)n1O)CCCC3,"Gag-Pol polyprotein, integrase (gag-pol, Human immunodeficiency virus 1, UniProt P03366)","integrase strand transfer, inhibitor",,,3.6 ± 0.5 µM
CN(C)c1ccc2c(n1)sc1c(N3CCNCC3)ncnc12,"Beta-glucuronidase (Lachnospira eligens, UniProt C4Z6Z2)","enzyme activity, inhibitor",,,0.8 ± 0.2 µM
O=C(COC(=O)CNC(=O)c1ccccc1Cl)Nc1cc(C(F)(F)F)ccc1Cl,"Cruzipain (Trypanosoma cruzi, UniProt P25779)","enzyme activity, inhibitor",,,0.22 µM
CNc1nc(N2CCNCC2)c2sc3nc(N4CCOCC4)ccc3c2n1,uidA,"enzyme activity, inhibitor",,,0.022 ± 0.007 µM
COC(=O)C1=C(C(=O)OC)C2([C@@H](Cc3ccccc3)Nc3ccc(OC)cc3)C=CC1O2 (stereo partly drawn),SUMO-activating enzyme subunit 2 with SAE1,"SUMOylation, inhibitor, AlphaScreen",,added: SUMO1-RanGAP1 conjugation,4.79 µM
CC(C)[C@@H]1NC(=O)[C@]2(C)CSC(=N2)c2nc(sc2-c2ccc(CNC(=O)CCCCCNC(=O)CCCCCNC(=O)CCCC[C@@H]3SC[C@@H]4NC(=O)N[C@@H]43)cc2)CNC(=O)C[C@@H](/C=C/CCS)OC1=O,"HDAC6 (Homo sapiens, UniProt Q9UBN7)","enzyme activity, inhibitor, fluorogenic",,with TCEP,0.0365 µM
O=C(NO)c1c(F)c(F)cc(F)c1F,hdac6 CD2 catalytic domain,"enzyme activity, inhibitor, fluorogenic",,"30 min, added: Ac-RHK(Ac)K(Ac)-AMC",> 20 µM
NC(=O)c1cc(Sc2ccc(OCCN3CCOCC3)cc2)nc2ccccc12,CDPK1,"kinase activity, inhibitor, ELISA",,"added: syntide-2 substrate, ATP 25 µM",7.3 µM
OC(CN1CCNCC1)Cn1c2ccccc2c2cc(Br)ccc21 (stereo not drawn),"BAX (Homo sapiens, UniProt Q07812)","membrane permeabilization, inhibitor",ANTS/DPX liposomes,"400 nM BAX, added: 30 nM tBID",8.3 µM
C(=C\c1ccccc1)/CN1CCN(C(c2ccccc2)c2ccccc2)CC1,"RNMT (Homo sapiens, UniProt O43148)","enzyme activity, inhibitor",,,16.8 ± 2 µM
NCc1ccc(-c2ncc(OCC3CCNCC3)nc2-c2ccc(-c3ccoc3)cc2)cc1,Genome polyprotein NS2B-NS3 protease,"enzyme activity, inhibitor",,Gly4-Ser-Gly4-linked NS2B-NS3 protease,0.2 ± 0.01 µM
O=C(NC1CCN(Cc2cc(Cl)c3cccnc3c2O)CC1)c1cccc(Br)c1,KCNJ13 M125R,"ion current, inhibitor, thallium flux",T-REx-HEK293,,4 µM
O=C1NC(=O)C2(Cc3ccccc32)N1 (racemic),"GABA-A receptor alpha-1/beta-3 (GABRA1/GABRB3, Homo sapiens, UniProt P14867+P28472)",[3H]muscimol binding,,alpha1beta3 receptor,3.1 µM
O=C(O)CC1(n2cnnn2)CCCCC1,"blaNDM-1 (Klebsiella pneumoniae, UniProt C7C422)",,,"10 min preincubation, added: FC5 fluorogenic substrate",> 1000 µM
COC(=O)C1=C(C(=O)OC)C2([C@H](Cc3ccc(C)cc3)Nc3ccccc3)C=CC1O2 (stereo partly drawn),SUMO-activating enzyme subunit 2 with SAE1,"SUMOylation, inhibitor, AlphaScreen",,added: SUMO1-RanGAP1 conjugation,2.14 µM
CCCCCCCCCCCN1[C@@H](COP(=O)(O)CP(=O)(O)O)[C@]1(C)CC/C=C(\C)CCC=C(C)C (relative stereo),Squalene synthase ERG9,"enzyme activity, inhibitor",,"pH 7.2, added: 1.5 mM pyrophosphate, 100 µM [3H]FPP",no inhibition
CCOc1ccc2cc(-c3nn(CC4CCNCC4)c4ncnc(N)c34)ccc2n1,"Calcium-dependent protein kinase 4 (Plasmodium falciparum, UniProt Q8IBS5)","kinase activity, inhibitor, Kinase-Glo luminescence",,"wild-type enzyme, added: ATP 10 µM, CaCl2 2 mM",0.002 µM
O=C(NC1CCN(Cc2cc(Cl)c3cccnc3c2O)CC1)c1ccccc1,KCNJ13 M125R,"ion current, inhibitor, thallium flux",T-REx-HEK293,,8.3 µM
C=C[C@@H](Nc1ccccc1)C12C=CC(O1)C(C(=O)OC)=C2C(=O)OC (stereo partly drawn),SUMO-activating enzyme subunit 2 with SAE1,"SUMOylation, inhibitor, AlphaScreen",,added: SUMO1-RanGAP1 conjugation,7.18 µM
N=C(N)c1ccc(OCCOCCOc2ccc(C(=N)N)cc2)cc1,Grin1/Grin2b ifenprodil binding site,,,pH 7.4,63.8 µM
CCN(CC)C(=O)Oc1ccc(CCC(=O)N2CCC(c3ccccc3)CC2)cc1OC,"Cholinesterase (BCHE, Equus caballus, UniProt P81908)","enzyme activity, inhibitor, Ellman",,,2.7 ± 0.03 µM
CC(=O)N1CCC(C(=O)N(CCCN2C3CCC2CC(NS(=O)(=O)c2ccc(C(=O)NCCOCCOCC(=O)NCCOCCOCC(=O)NCCOCCOCC(=O)NCCOCCOCC(N)=O)cc2)C3)c2ccc(C)c(Cl)c2)CC1 (stereo not drawn),"CCR5 (Homo sapiens, UniProt P51681)","calcium mobilization, antagonist",CHO expressing Gα16,added: RANTES 10 nM,0.0274 µM
CC(C)(C)c1ccc(C(=O)Nc2cc(Cl)c(F)cc2C(=O)O)cc1,"Phosphotransferase (Trypanosoma brucei, UniProt Q38C42)","hexokinase activity, inhibitor",,,2.79 ± 0.1 µM
NCc1ccc(-c2ncc(NCC3CCNCC3)nc2-c2ccc(-c3ccoc3)cc2)cc1,Genome polyprotein NS2B-NS3 protease,"enzyme activity, inhibitor",,Gly4-Ser-Gly4-linked NS2B-NS3 protease,0.4 ± 0.05 µM
Cc1c2ccncc2c(C)c2c1[nH]c1ccc(C(=O)NC(C)C)cc12,"Toll-like receptor 3 (Homo sapiens, UniProt O15455)","reporter gene, SEAP reporter",HEK-Blue hTLR3,added: poly(I:C),0.09 ± 0.01 µM
O=C(c1ccc(O)c(Sc2ccccc2)c1)N1Cc2ccccc2C1,HSP90AB1,"binding, fluorescence polarization",,added: FITC-geldanamycin tracer,> 100 µM
Oc1c(CN2CCC(NCc3ccccc3)CC2)cc(Cl)c2cccnc12,KCNJ13 M125R,"ion current, inhibitor, thallium flux",T-REx-HEK293,,12.4 µM
CC(=O)N[C@H]1[C@H](O[C@@H]2[C@@H](OC[C@H]3O[C@@H](O[C@H]4[C@H](O)[C@H]5N=C(C)S[C@H]5O[C@@H]4CO)[C@@H](O)[C@@H](O[C@H]4O[C@H](CO)[C@@H](O)[C@H](O)[C@@H]4O[C@@H]4O[C@H](CO)[C@@H](O[C@@H]5O[C@H](CO)[C@H](O)[C@H](O)[C@H]5O)[C@H](O)[C@H]4NC(C)=O)[C@@H]3O)O[C@H](CO)[C@@H](O)[C@@H]2O)O[C@H](CO)[C@@H](O[C@@H]2O[C@H](CO)[C@H](O)[C@H](O)[C@H]2O)[C@@H]1O,"endoS2 (Streptococcus pyogenes, UniProt T1WGN1)","N-glycan hydrolysis, inhibitor, HPAEC-PAD",,"10 min, pH 7.4, 30 °C, added: sialylated rituximab substrate",0.57 µM
O=C(NC1CCN(Cc2cc(Cl)c3cccnc3c2O)CC1)OC1CCCCC1,KCNJ13 M125R,"ion current, inhibitor, thallium flux",T-REx-HEK293,,4.2 µM
O=c1ccn([C@@H]2O[C@H](COP(=O)(O)OP(=O)(O)OP(=O)(O)O)[C@@H](O)[C@]2(F)Br)c(=O)[nH]1,"Genome polyprotein, NS5B polymerase (Hepatitis C virus genotype 1b, UniProt Q9WMX2)","polymerase activity, inhibitor",genotype 1b,,0.64 µM
c1cc2c(nc1N1CCOCC1)sc1c(N3CCNCC3)nnnc12,"Beta-glucuronidase (Streptococcus agalactiae serotype V, UniProt Q8E0N2)","enzyme activity, inhibitor",,,1.04 ± 0.08 µM
Cc1ccc(CN2C(=O)C(O)=C(C(=O)c3cccs3)C2c2ccc(C)cc2)cc1 (racemic),"USP21 (Homo sapiens, UniProt Q9UK80)","enzyme activity, inhibitor, MALDI-TOF",,"35 min preincubation, 30 °C",13.7 µM
COc1cc(C)cc(Sc2cc(C(=O)N3Cc4ccccc4C3)ccc2O)c1,HSP90AB1,"binding, fluorescence polarization",,added: FITC-geldanamycin tracer,> 50 µM
NC(=O)c1cc(Sc2ccccc2)nc2ccccc12,CDPK1,"kinase activity, inhibitor, ELISA",,"added: syntide-2 substrate, ATP 25 µM",> 20 µM
COC(=O)C1=C(C(=O)OC)C2([C@H](C)Nc3ccccc3)C=CC1O2 (stereo partly drawn),SUMO-activating enzyme subunit 2 with SAE1,"SUMOylation, inhibitor, AlphaScreen",,added: SUMO1-RanGAP1 conjugation,23.7 µM
N=C(N)c1ccc(OCCSCCOc2ccc(C(=N)N)cc2)cc1,Grin1/Grin2b ifenprodil binding site,,,pH 7.4,19.2 µM
CC(C(=O)c1ccccc1)N1CCCCC1 (stereo not drawn),"Slc6a3 (Rattus norvegicus, UniProt P23977)","dopamine uptake, inhibitor",rat caudate synaptosomes,added: [3H]dopamine 5 nM,2.49 µM
"CC(C)=CCC/C(C)=C/CCCCN1[C@H](COP(=O)(O)OP(=O)(O)O)[C@@]1(C)CC/C=C(\C)CCC=C(C)C (single isomer, unassigned)",Squalene synthase ERG9,"enzyme activity, inhibitor",,"pH 7.2, tetrabutylammonium salt, added: 100 µM [3H]FPP, no added pyrophosphate",18.7 ± 4.9 µM
CCc1nc(N)nc(N)c1C#CCc1cc(-c2ccncc2)ccc1OC,"Dihydrofolate reductase (Klebsiella pneumoniae, UniProt A6T4I4)",inhibitor,,,0.108 ± 0.008 µM
C=CC[C@H](Nc1ccc(OC)cc1)C12C=CC(O1)C(C(=O)OC)=C2C(=O)OC (stereo partly drawn),SUMO-activating enzyme subunit 2 with SAE1,"SUMOylation, inhibitor, AlphaScreen",,added: SUMO1-RanGAP1 conjugation,17.6 µM
c1cnc2sc3c(N4CCNCC4)ncnc3c2c1,"Beta-glucuronidase (Lachnospira eligens, UniProt C4Z6Z2)","enzyme activity, inhibitor",,,2.7 ± 0.6 µM
O=C(NO)c1cc(F)cc(F)c1,hdac6 CD2 catalytic domain,"enzyme activity, inhibitor, fluorogenic",,"30 min, added: Ac-RHK(Ac)K(Ac)-AMC",1.6 ± 0.1 µM
C/C=C1\NC(=O)[C@@H](NC(=O)[C@@H](NC(=O)[C@H](C)NC(=O)C/C(C)=C/Cl)[C@@H](C)CC)[C@@H](C)OC(=O)[C@H](C(C)C)NC(=O)[C@H](Cc2ccc(O)cc2)N(C)C(=O)[C@H](Cc2ccccc2)N2C(=O)[C@H](CC[C@H]2OC)NC1=O,"Proteinase K (PROK, Engyodontium album, UniProt P06873)","enzyme activity, inhibitor",,"30 min, pH 7.4, 22 °C, added: Suc-Ala-Ala-Pro-Phe-AMC",0.0986 µM
CNc1ccc2c(n1)sc1c(N3CCNCC3)nc(NC)nc12,uidA,"enzyme activity, inhibitor",,,0.02 ± 0.005 µM
CO[C@H]1[C@H](O[C@H]([C@H]2O[C@@H](n3ccc(=O)[nH]c3=O)[C@H](O)[C@@H]2O)[C@H](NCCCNC(=O)[C@@H](NC(=O)[C@@H](NC(=O)N[C@H](C(=O)O)C(C)C)[C@@H]2CCNC(=N)N2)[C@@H](OC(=O)CCCCCCCCCCCCNC(=N)N)C(C)C)C(N)=O)O[C@H](CN)[C@H]1O,MurX (Mycolicibacterium smegmatis),"enzyme activity, inhibitor",P-60 membrane fraction,,0.035 ± 0.003 µM
CCN(CCNc1ccc(C)c2sc3ccccc3c(=O)c12)CC(C)(C)O,"Bcl-2-related protein A1 (Mus musculus, UniProt Q07440, C113S/P104K)","binding, fluorescence polarization",,added: FITC-Noxa peptide,334 µM
CC(C)Oc1c(NC(=O)c2ccc(NC(=O)[C@H](CC(N)=O)NC(=O)c3cc(F)c(/N=N/c4c(Cl)cc(C#N)cc4Cl)c(F)c3)cc2)ccc(C(=O)N/N=C/c2c(F)cc(C(=O)O)cc2F)c1O,"DNA gyrase (gyrA/gyrB, Escherichia coli, UniProt P0AES4+P0AES6)","DNA supercoiling, inhibitor",,"30 min, 37 °C, dark-adapted state",> 25 µM

# Excerpt of the above:
Compound,target,test,system,conditions,IC50
CNc1nc(N2CCNCC2)c2sc3nc(N4CCOCC4)ccc3c2n1,uidA,"enzyme activity, inhibitor",,,0.022 ± 0.007 µM
COC(=O)C1=C(C(=O)OC)C2([C@@H](Cc3ccccc3)Nc3ccc(OC)cc3)C=CC1O2 (stereo partly drawn),SUMO-activating enzyme subunit 2 with SAE1,"SUMOylation, inhibitor, AlphaScreen",,added: SUMO1-RanGAP1 conjugation,4.79 µM
CC(C)[C@@H]1NC(=O)[C@]2(C)CSC(=N2)c2nc(sc2-c2ccc(CNC(=O)CCCCCNC(=O)CCCCCNC(=O)CCCC[C@@H]3SC[C@@H]4NC(=O)N[C@@H]43)cc2)CNC(=O)C[C@@H](/C=C/CCS)OC1=O,"HDAC6 (Homo sapiens, UniProt Q9UBN7)","enzyme activity, inhibitor, fluorogenic",,with TCEP,0.0365 µM
